# Experimental data pooled from the literature.
# Parts stem from different laboratories: compare values within a part only.

# Set 1
# Target: Sal-like protein 4, full length isoform A (SALL4, Homo sapiens, UniProt Q9UJQ4, residues 1-1053)
# UniProt Q9UJQ4, sequence (whole entry, looked up): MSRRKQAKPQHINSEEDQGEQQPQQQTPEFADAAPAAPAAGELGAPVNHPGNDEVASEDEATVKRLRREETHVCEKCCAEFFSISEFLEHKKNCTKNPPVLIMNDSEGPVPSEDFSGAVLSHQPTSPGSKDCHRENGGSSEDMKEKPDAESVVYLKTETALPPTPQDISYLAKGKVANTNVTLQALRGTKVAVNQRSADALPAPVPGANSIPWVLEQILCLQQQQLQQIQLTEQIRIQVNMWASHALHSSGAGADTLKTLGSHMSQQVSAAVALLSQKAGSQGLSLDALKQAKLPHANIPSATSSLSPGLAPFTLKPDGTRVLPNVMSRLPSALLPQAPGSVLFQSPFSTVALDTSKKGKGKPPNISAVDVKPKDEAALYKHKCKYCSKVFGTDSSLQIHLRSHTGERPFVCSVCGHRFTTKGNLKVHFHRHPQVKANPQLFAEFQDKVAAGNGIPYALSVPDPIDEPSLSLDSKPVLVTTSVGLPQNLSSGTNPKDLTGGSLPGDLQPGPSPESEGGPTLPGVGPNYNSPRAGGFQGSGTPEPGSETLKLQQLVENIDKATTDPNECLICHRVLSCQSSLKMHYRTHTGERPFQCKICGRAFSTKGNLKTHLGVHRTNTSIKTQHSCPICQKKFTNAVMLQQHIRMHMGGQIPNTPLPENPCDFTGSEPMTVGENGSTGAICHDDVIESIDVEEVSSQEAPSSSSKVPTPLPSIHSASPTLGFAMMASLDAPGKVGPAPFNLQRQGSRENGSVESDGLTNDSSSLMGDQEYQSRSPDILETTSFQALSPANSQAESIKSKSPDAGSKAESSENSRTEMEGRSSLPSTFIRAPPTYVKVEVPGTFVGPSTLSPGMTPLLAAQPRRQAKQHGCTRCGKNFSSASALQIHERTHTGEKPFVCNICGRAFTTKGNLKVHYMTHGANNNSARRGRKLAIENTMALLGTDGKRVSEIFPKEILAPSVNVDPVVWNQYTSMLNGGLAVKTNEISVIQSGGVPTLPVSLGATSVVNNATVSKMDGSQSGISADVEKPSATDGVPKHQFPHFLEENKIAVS
# Technique: universal PBM
# Molecule type: double-stranded DNA, one strand shown
# Sample: in vitro
# Tested at: 600 nM
# Notes: 8-mer, flanks averaged, mean of replicates
# Direction: higher = stronger binding
Strand,E-score
ATCCGCAT,0.00333
AGCAATGC,0.0304
AAAGCACG,-0.0439
ATCCATCG,-0.0471
TAACTCAA,0.176
AGCTACTC,-0.104
GGTGCGAC,-0.2

# Set 2
# Target: RING finger protein unkempt homolog, zinc fingers 1-6, GST-SBP tag (UNK, Homo sapiens, UniProt Q9C0B0, residues 30-357)
# UniProt Q9C0B0, sequence (30-357, looked up): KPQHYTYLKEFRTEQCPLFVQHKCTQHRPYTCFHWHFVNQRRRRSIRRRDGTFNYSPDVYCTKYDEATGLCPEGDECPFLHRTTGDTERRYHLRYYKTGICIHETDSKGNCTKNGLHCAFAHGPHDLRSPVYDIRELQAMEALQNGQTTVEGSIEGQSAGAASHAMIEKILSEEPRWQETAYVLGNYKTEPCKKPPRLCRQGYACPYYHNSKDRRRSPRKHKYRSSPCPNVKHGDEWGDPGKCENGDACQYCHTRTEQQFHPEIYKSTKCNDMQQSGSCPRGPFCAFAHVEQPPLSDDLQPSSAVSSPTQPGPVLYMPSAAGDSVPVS
# Technique: RNA Bind-n-Seq
# Molecule type: RNA
# Sample: in vitro
# Tested at: not given
# Notes: RNA with constant flanks, human and mouse sites, ends assumed
# Reference: input RNA pool
# Direction: higher = stronger binding
# All sequences stand within: GGGAGUUCUACAGUCCGACGAUC … CAACAGAGGAUUGAGCAUCA
Strand,bound/input enrichment [ratio]
UAUAUGACUGAUGGGAUGUUACUUCGUGAAGCUAUGAAUGAUCCCCUCCUGGAGCGUUAUGGUGUAAUAAUUCUUGAUGAGGCUCAUGAGAGGACACUGGCUACAGAUAUUCUAAUGGGU,0.108
CCUGAGAUAGUGCUGUGGUUAUAAUGUCUUUUACUAUUGUAUUAAUGGCUAGCCUGUUACAUUAGACUGGGGGGGGGGUACAGAGGUCUGCUGUUUUGUGAGGCUUUUUGUUUUUUUGGG,0.668
CCUGCUACAGUUUUUAUGCUCUUUAGUGGCCAAGGAAGUUUGCUCCAGCCUUUUAUAUAUUAUAGAUUUCUUACUCUUCGAUAUUCCUCUAGAAGAAAUCCAUAUUGUCGGAACUUGUUU,5.01
AUUCAUUUUCUUAUCUCUCCAUUAAAGCACUAAUAUUUUAUACAGUUUCAGCAAGCAGGUUGACCAGUAUAUUUUAUGAACUCAGUUCCUAAUAUAUGGCUACUGGCUUUAUGCAUAGGA,0.527
AAUGGAGUGACUUUGCGUAGGCUUGCGGGUGUCCAGGCCGCCUAGGCUGGAGAGAAAGCCAGUAGAAAUAGAUAUGAUUGUAGGAAAAGACCGGGAAGGUUUCUUUACCAACGGUUUGAC,15.5

# Set 3
# Target: RNA binding protein fox-1 homolog 2, RRM domain, GST-SBP tag (RBFOX2, Homo sapiens, UniProt O43251-10, residues 100-194)
# Technique: RNA Bind-n-Seq
# Molecule type: RNA
# Sample: in vitro
# Tested at: 365 nM
# Notes: natural RNA segment, single round, ends assumed
# Reference: no-protein control
# Direction: higher = stronger binding
# All sequences stand within: GGGAGUUCUACAGUCCGACGAUC … UGGAAUUCUCGGGUGCCAA
# Construct (chain): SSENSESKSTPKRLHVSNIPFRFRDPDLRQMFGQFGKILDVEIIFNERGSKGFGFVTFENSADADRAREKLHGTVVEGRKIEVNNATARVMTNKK
Strand,RBNS enrichment (R)
AUAUGAAUGAACAAACCUGUGAUCUAGUCCUUGUCUUGUAAUUGUGGAUUAAUGUCAAUGUUAAUCAGCCCCUCAAAGGGAGAGAAAAGCUGGACCUUUUCCCUUGCUGU,2.14
ACGUGAAGUCAGCCCACACCAGCCAAACCCUCGUGGAAGAUCUGCUGCAACCAUUAUCUUUGUUCUUGAGUUCAUCAUGCAUUUAAAAUGAGAUGCAAGAGCAUUUAGCA,0.815
GUUUUUUUUUUUAAGACAAAAAAGAUGUUUAAAGACCAAAAACUGUGCUGAGAAAGUAUGCCCCACCUAUCUUUGGUAUAUGAUAGGUUACAUAAAAGGAAGGUAUUGGC,0.372
AUUUAUAGGAGGCAAACUGUAUAAAUGAUAGGUAUGAAAUAGAAUAAGAAGUAAAAUACAUCAGCAGAUUUUCAUACUAGUAUGUUGUAAUGCUGUCUUUUCUAUGGUGU,0.465
GUGAUUGUACCAAGGAACUUAGCCUCAUGUAGCAUGUACAGGGUUGUAAUGGUGACCCAGCAGCGAGCUCUCUCCCAGUAAUUUGUUCCGCAUGUGUAGUCUCCCCUCGC,40
AAUUUAUGUUAAAGUAUUAACCCUUUGUCACAAAGGAAUGGUAAUGUGAUUGGCUGCCUGUUAGCCCAUCGACUAUUCCCGUCACGGUAGUCCUUACCUCUGUCGGCAGC,0.285
CUAAUUUUAUAAGGCAUCUUAUUUUAUCUUUCAGAGAGCUCUACUUCUGGCUCAGGGAAUCUGAUAGAGCCCAUGGAAGAGAGUCCUCAUCAGCAAACCAGGCCAGCAUU,1.3
AGUGGCUGCUGGCUCUCAAGCUGCCAUUUUUUCCUGAUGCAAAAAAUGAAAGCAGGCAAAAGUGCUGUCAUUGUGAUACCGUCCCACUCAGAUGUCUAACGGGAGCUUGC,0.535

# Mixed results
Substance,target,test,system,conditions,how to read,measurement,result
"PhoQ, residues 284 288 289 292 302 303 QWQEDG","PhoP, residues 12 14 15 18 19 LHTVM (Escherichia coli, UniProt P23836)","Sort-seq, measured: YFP reporter",E. coli,"PhoQ-PhoP variant library, with: 10 µM Mg2+","reference: high Mg2+ state, higher = stronger signaling",fold induction,15.1

# Some of these lines once more (set 2):
Strand,bound/input enrichment [ratio]
CCUGCUACAGUUUUUAUGCUCUUUAGUGGCCAAGGAAGUUUGCUCCAGCCUUUUAUAUAUUAUAGAUUUCUUACUCUUCGAUAUUCCUCUAGAAGAAAUCCAUAUUGUCGGAACUUGUUU,5.01
AUUCAUUUUCUUAUCUCUCCAUUAAAGCACUAAUAUUUUAUACAGUUUCAGCAAGCAGGUUGACCAGUAUAUUUUAUGAACUCAGUUCCUAAUAUAUGGCUACUGGCUUUAUGCAUAGGA,0.527
